Experimental data collected from several papers.
Numbered parts are unrelated; each lists some results of a single study.

Set 1 — method: universal PBM; molecule type: double-stranded DNA, one strand shown; medium: in vitro; concentration: not given; reading: higher = stronger binding; quantity: E-score
Target: Sal-like protein 4, full length isoform B (SALL4, Homo sapiens, UniProt Q9UJQ4-2, residues 1-616)
Notes: 8-mer, flanks averaged, mean of replicates
CCGGCTAA: -0.126
CCTTCGAA: -0.076
ATGCAGAC: 0.00551
AATCGAAA: 0.102
CCCCGCGA: -0.292
ATGTCTAA: 0.239
AACCAATA: 0.232
AAGTCTGA: 0.0194
AACACGGC: -0.136
CACCGAGG: -0.281
GGACTCAC: -0.184
GGAAGCCC: -0.304
GGGCATAC: -0.0183
GATGGCTA: 0.0692
AATAGTGC: 0.0792
CAAAGGTA: 0.0548
TTAGAGAA: 0.1
CTCCTGGC: -0.183
CCGGACAA: -0.132
ACCAGCGG: -0.24
AACCAGTG: -0.14
GTCTGGAA: -0.0631
CATCGCGG: -0.193
GATAGGGA: 0.0226
GCTGTACA: -0.00563

Set 2 — method: RNA Bind-n-Seq; molecule type: RNA; medium: in vitro; concentration: not given; baseline: input RNA pool; reading: higher = stronger binding; quantity: bound/input enrichment
Target: RING finger protein unkempt homolog, zinc fingers 1-6, GST-SBP tag (UNK, Homo sapiens, UniProt Q9C0B0, residues 30-357)
Notes: RNA with constant flanks, human and mouse sites, ends assumed
Shared flanks, not repeated: GGGAGUUCUACAGUCCGACGAUC … CAACAGAGGAUUGAGCAUCA
Construct (chain): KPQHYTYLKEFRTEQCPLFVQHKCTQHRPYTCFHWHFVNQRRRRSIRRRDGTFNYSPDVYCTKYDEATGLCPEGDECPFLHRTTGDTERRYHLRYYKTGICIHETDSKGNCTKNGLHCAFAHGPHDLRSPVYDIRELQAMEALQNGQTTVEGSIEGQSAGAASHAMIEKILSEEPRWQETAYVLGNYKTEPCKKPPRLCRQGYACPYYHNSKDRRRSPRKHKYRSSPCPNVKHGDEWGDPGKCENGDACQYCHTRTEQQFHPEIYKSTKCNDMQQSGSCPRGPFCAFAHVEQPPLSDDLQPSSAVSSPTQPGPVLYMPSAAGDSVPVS
UUUGGAGGUCAAGACAUCUUUAUGACAGAGGAACAGAAAAAAUAUUACAAUGCAAUGAAGAAACUUGGAUCCAAGAAACCUCAGAAACCCAUACCUCGCCCAGCAAACAAAUUCCAAGGA: 0.309 ratio
CUCAAAAUAAAGUCAGAACUUGGAUUAAAUUUCUAUCAGCAAGUGAAACUGGUCAAUUUUAUUCGGAGGCAAGUUCACCAAUGCAGAUGUUAUGGCUGCCAUGUGAAGUUCAAAUCCAAA: 0.18 ratio
CCCAUCAAGAUCGGCCGCUCGGUGGCACGCUGUCGACCAGCGCAGAAUAAUGCCACCUUUGAUUGCAAAGUGCUGUCAAGGAACCAUGCCCUCGUCUGGUUUGAUCACAAGACGAGCAAG: 0.107 ratio
GAACCUGAAGUUGAAUAUGAGACAUUAAAAGACACCUCAGAGAAGCUCAAACAGCUUGAGAUGGAGAACAGUCCUUUGCUGUCCCCUCGAUCCAACAUCGAUGUUAACAUAAACAGCCAG: 0.204 ratio
AGUCUCAAUGGAGGCUAUCAAGAUGAGUUGGUAGACCACCGUUUGACAGAAAGGGAGUGGGCUGAUGAAUGGAAACACCUUGACCAUGCACUGAAUUGCAUUAUGGAAAUGGUAGAGAAA: 0.15 ratio
UUUAUAGAAAUCACCGAUGACCAGUUUGACUUUCAUACAUACUGUAUGAGGAAGAUCACCCUUAGAUCAUAUGUGGACUUAUUAAAACUAGAAGAUGUACUUCGACAGCAUCCAUUUUAC: 4.37 ratio
AUCAUGUAUCUGUUUUGUCCCAUAAUAUGCUUUUUACUCCCUGAUCCCAGUUUCUGCUGUUGACUCUUCCAUUCAGUUUUAUUUAUUGUGUGUUCUCACAGUGACACCAUUUGUCCUUUU: 0.839 ratio
GAGUCUAACAACAUUUUCAUUUCCGAAAGGCCAACAGAUGUUCUCCAGACAGUCAAGUUAUUAGAUCUUUCCUCUAAUCAAUUAAUUGAUGAAAAUCAGCUGUAUCUGAUAGCCCACCUG: 0.294 ratio
GGGCGACCCAGAACAGCCCUCGCCGUGGGGACGGGAGCGCACCCGGGGCCCAUUGCCUUGUGCUGGCUCGCUGUCCCUUGGAGCCGAAACCGAAAGGAGCCCGGCGUCGGUCCGGAGCCG: 0.0728 ratio
CGGACUCCCGCGGCGGGAGGAGCCUGUUCCCCUGAGGGUAUUUGAAGUAUACCAUACAACUGUUUUGAAAAUCCAGCGUGGACAAUGGCUACUCAAGCUGAUUUGAUGGAGUUGGACAUG: 0.131 ratio
UCGUGGAAGACGUGAGCGAAAUGACCAGCGAACUCAUUUUUUAUCAGACUUGCUGAAGCUGGCUUUUGCGUUUUUUCUACACGUACGCUUAAUUUUGUGGAAUAGUUAAGUGCUAUAUUC: 0.238 ratio

Set 3 — method: protein binding microarray; molecule type: double-stranded DNA, one strand shown; medium: in vitro; concentration: not given; baseline: not given; reading: higher = stronger binding; quantity: E-score
Target: Histone acetyltransferase KAT6A, winged helix 1, GST fusion (KAT6A, Homo sapiens, UniProt Q92794, residues 1-85)
Notes: 8-mer, flanks averaged, mean of 2 arrays, mostly near background
Construct (chain): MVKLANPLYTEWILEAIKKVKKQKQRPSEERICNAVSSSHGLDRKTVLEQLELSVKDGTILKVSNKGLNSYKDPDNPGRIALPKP
CAAAATTG: -0.229
ACTCGAGG: -0.203
CGGTGTCA: 0.0825
ACCGGGAG: 0.229
GATAAGTA: 0.0189
ACCGGGAC: 0.324
CGAAGAGA: -0.117
ATGGACCA: -0.198
ACTGGTCT: -0.161
CGCGTCGA: 0.3
AAGCTTGA: -0.0724
TAAGCCCA: -0.203
ACTCTTTC: -0.0917
AGCGGCAT: 0.384
AAACTCTA: -0.154
ACGGGCCC: 0.382
CTAAGGGC: -0.0915
AGGGTTCC: -0.175
GTCTAATA: -0.0513
GGCCCTAC: 0.0411
CCATGCCA: -0.107

Set 4 — method: RNA Bind-n-Seq; molecule type: RNA; medium: in vitro; concentration: 365 nM; baseline: no-protein control; reading: higher = stronger binding; quantity: RBNS enrichment (R)
Target: RNA binding protein fox-1 homolog 2, RRM domain, GST-SBP tag (RBFOX2, Homo sapiens, UniProt O43251-10, residues 100-194)
Notes: natural RNA segment, single round, ends assumed
Shared flanks, not repeated: GGGAGUUCUACAGUCCGACGAUC … UGGAAUUCUCGGGUGCCAA
Target sequence (chain): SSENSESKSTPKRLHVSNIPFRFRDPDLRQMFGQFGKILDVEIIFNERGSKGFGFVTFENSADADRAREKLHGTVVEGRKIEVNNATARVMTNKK
CUUACACAUUUUAUGUAAACUCUUUAAUGUCUUUAAUUUGGAUUUUUGUUUCUUAGAACUUUAACAUUUAUUUUAAUCCUGAAGACACUUUUUUGAUUGUGUUUCGUAAG: 0.837
AGACUGUUGAUGAUAUGAAGGCCUUUUGUAAGAAAAUAAAAAAUAAAGUAAAUUGCCUGUCUCUCUGGUUGGGCUUGAGAUUUAAGGUCUGUGGACAUGCACAGGAUUGG: 1.97
CCUUCCUCCUCCUUUGCCUAGGAGGCCUUCUCGCAUUUUCUCUAGCUGAUCAGAAUUUUACCAAAAUUCAGAACAUCCUCCAAUUCCACAGUCUCUGGGAGACUUUCCCU: 0.968
CAGAAUAGCCUGCCUAAUAAGAAGGACUUCGAACCAUUCCCUAUGGCCUCAUCUGGGACUGUUGGUUUAGUAAGCCUGUGGUCAACAAGUCACACCUACAUGACUGACCC: 0.429
CUAAAUGGUGUGUUAAAAUUAGGGUUUCUUUGCCUCUCUACACUACACUAAUCUGCCUAAAGGUGGUUGUUUCAUAUUUAUAAUGCUAAUUAUCAUACCUACCUACUUUA: 0.664
GUGGAACUAUUCAAGGGACGGAACUCCUCUGGAGACUCUGUUUAAACAUACUUUUCAGUUCCCGAGAGACCACCUAAGUAAGAUGACAUUUCUGACAGGCGGGUGCCAGU: 0.525
GAACCCACCAGGAGCACCACAGAGUCCUCCUCUUGGAAGGCAGAACUCCCUGAAAUCUGGAAUCAGGGUGGAAACAGCCUGUUUUUCCCAUUUAAACAGGAGUCCUCUUC: 0.283
CACUGCAGAGGAAGAACCCUGGGCACAGCAGCUUUGUCCUUGGCUACAAACUGUUACAACGUCACACAAUGAAGGCACAAAGUCCAACUUUCAAAGGGUGUAGGACUCCA: 0.582
ACCCUUCCCCUAGUUUUGCUGAGUUAUUUGUUGUCCAGAACCUGUUGGCUAACCCCACUGAAGGCACAUUUCUAGAUGAUGCCGUGUGUGGUCAAUACAUUGCUUUCAUG: 0.431
AAACCCAGCCCUGGCGCUGAGCCUCUCUACCCCAGGUCAGACGGACAGAAAGACAGAUCACAGGUACAGGGAUGAGGACACCGGCUCUGACCAGGAGUUUGGGGAGCUUC: 0.565
CCCAGAAUUAGCCUGAGCUGCUAAGAAUUCCUCAACCCAUUCCUCUAAGCUGAAAAGCACUCUUGUCAGAAUUUAGACCUAACUAAGAUUCAUCAGUUCCUAACCUACUC: 0.658
UUAGAUGUUUAUAUACCUUUUGAAGAGACCCAGUAGCCCAUAGCACAAAUCUUGUGGAAAUCCGAUAUGUUUUAAUGUGGCUACCUAGGUUUAAGGUUCACGUUAGUCCC: 0.527

Repeated from above (set 2):
GAACCUGAAGUUGAAUAUGAGACAUUAAAAGACACCUCAGAGAAGCUCAAACAGCUUGAGAUGGAGAACAGUCCUUUGCUGUCCCCUCGAUCCAACAUCGAUGUUAACAUAAACAGCCAG: 0.204 ratio
AGUCUCAAUGGAGGCUAUCAAGAUGAGUUGGUAGACCACCGUUUGACAGAAAGGGAGUGGGCUGAUGAAUGGAAACACCUUGACCAUGCACUGAAUUGCAUUAUGGAAAUGGUAGAGAAA: 0.15 ratio
UUUAUAGAAAUCACCGAUGACCAGUUUGACUUUCAUACAUACUGUAUGAGGAAGAUCACCCUUAGAUCAUAUGUGGACUUAUUAAAACUAGAAGAUGUACUUCGACAGCAUCCAUUUUAC: 4.37 ratio
AUCAUGUAUCUGUUUUGUCCCAUAAUAUGCUUUUUACUCCCUGAUCCCAGUUUCUGCUGUUGACUCUUCCAUUCAGUUUUAUUUAUUGUGUGUUCUCACAGUGACACCAUUUGUCCUUUU: 0.839 ratio
GAGUCUAACAACAUUUUCAUUUCCGAAAGGCCAACAGAUGUUCUCCAGACAGUCAAGUUAUUAGAUCUUUCCUCUAAUCAAUUAAUUGAUGAAAAUCAGCUGUAUCUGAUAGCCCACCUG: 0.294 ratio
